Measured values from different studies.
Several values in a cell are separate wells, animals, samples, runs or records.
HTR1F: 5-hydroxytryptamine receptor 1F (HTR1F, Homo sapiens, UniProt P30939)
AVPR2: Vasopressin V2 receptor (AVPR2, Homo sapiens, UniProt P30518)
MTNR1B: Melatonin receptor type 1B (MTNR1B, Homo sapiens, UniProt P49286)
GPR84: G-protein coupled receptor 84 (GPR84, Homo sapiens, UniProt Q9NQS5)
MTNR1A: Melatonin receptor type 1A (MTNR1A, Homo sapiens, UniProt P48039)
CA9: Carbonic anhydrase 9 (CA9, Homo sapiens, UniProt Q16790)
MC3R: Melanocortin receptor 3 (MC3R, Homo sapiens, UniProt P41968)

For `COc1ccc(CC2NCCc3c2[nH]c2ccc(C)cc32)c(Cl)c1OC` (stereo not shown), the EC50 was 640 nM (HTR1F; G protein activation, agonist, BRET).
With `CC1=NN(/C(=N/c2nnc(C)s2)Nc2ccc(C)c(C)c2)C(c2ccc(-c3ccccc3)cc2)S1` (stereo not shown) the EC50 was greater than 50000 nM (AVPR2; cAMP, positive allosteric modulator).
`CN1CCC(=C2c3ccccc3Sc3ccccc32)CC1` has an EC50 of 371 nM (HTR1F; G protein activation, agonist, BRET).
`COc1cc(C=CC(=O)C=Cc2cc(OC)c(OC)c(OC)c2)cc(OC)c1OC` gave an EC50 of 650 nM (Sterol carrier protein 2 (Aedes aegypti, UniProt Q86PR3); ligand displacement, fluorescence).
With `COc1ccc2ncn(CCNC(C)=O)c2c1` the EC50 was 871 nM (MTNR1B; β-arrestin recruitment, agonist).
`CCCCC(=O)Nc1ccc(-c2ccc3ncn(CCC)c(=O)c3c2)cn1` gave a remaining binding of 100% (PRKAA1 (Homo sapiens, UniProt Q13131); binding, competition with immobilised ligand; 0.5 µM).
The EC50 of `CCCCCCCCN(C)c1cc(=O)[nH]c(=O)[nH]1` is reported as 38 nM (GPR84; cAMP, agonist).
The EC50 of `COCC(CNC(C)=O)c1cccc2ccc(OC)cc12` (stereo not shown) is reported as 21.4 nM (MTNR1B; cAMP, agonist, TR-FRET).
For `COc1cc(-c2cncc3c2CN(C)Cc2cc(N4CCNCC4)ccc2-3)cc(OC)c1OC`, the remaining activity was 113% (PRKACB (Homo sapiens, UniProt P22694); enzyme activity, inhibitor; 1 µM).
The EC50 of `CC1=NN(/C(=N\c2ccccn2)Nc2nnc(C)s2)C(c2ccc(C)cc2)S1` (stereo not shown) is reported as greater than 50000 nM (AVPR2; cAMP, positive allosteric modulator).
`CCOC(=O)[C@@]12C[C@@H]1[C@@H](n1cnc3c(NC4CC4)nc(C#Cc4ccc(Cl)s4)nc31)[C@H](O)[C@@H]2O` gave an EC50 of 110 nM (SLC6A3 (Homo sapiens, UniProt Q01959); ligand displacement, radioligand).
`COc1cc2c(CCNC(C)=O)c[nH]c2cc1I` has an EC50 of 5.25 nM (MTNR1B; β-arrestin recruitment, agonist).
With `CCOc1ccc(CNc2cccnc2C)cc1` the EC50 was 3620 nM (MTNR1A; cAMP, agonist, luciferase).
`CCc1ccc(C2=CC(C)(C)Sc3ccc(C#Cc4ccc(C(=O)O)cc4)cc32)cc1` gave an EC50 of 0.18 nM (RARA (Homo sapiens, UniProt P10276); reporter gene, antagonist, luciferase).
With `CC(C)C[C@H](NC(=O)[C@@H](N)[C@@H](C)O)C(=O)N[C@@H](CCC(N)=O)C(=O)N1CCC[C@H]1C(=O)N1CCC[C@H]1C(=O)N[C@@H](C)C(=O)N[C@@H](CO)C(=O)N[C@@H](CO)C(=O)N[C@@H](CCCNC(=N)N)C(=O)N[C@H](CCCNC(=N)N)C(=O)N[C@@H](CCCNC(=N)N)C(=O)N[C@@H](Cc1c[nH]cn1)C(=O)N[C@@H](Cc1ccccc1)C(=O)N[C@@H](Cc1c[nH]cn1)C(=O)N[C@@H](Cc1c[nH]cn1)C(=O)N[C@@H](C)C(=O)N[C@@H](CC(C)C)C(=O)N1CCC[C@H]1C(=O)N1CCC[C@H]1C(=O)N[C@@H](C)C(=O)N[C@@H](CCCNC(=N)N)C(=O)O` the EC50 was 209 nM (C3AR1 (Homo sapiens, UniProt Q16581); β-arrestin recruitment, agonist).
For `COc1cc(I)c2[nH]cc(CCNC(C)=O)c2c1`, the EC50 was 110 nM (MTNR1A; cAMP, agonist, TR-FRET).
For `CCCCCCCCNc1[nH]c(=O)[nH]c(=O)c1N=O`, the EC50 was 603 nM (GPR84; cAMP, agonist).
For `CCc1ccc2scc(CCNC(C)=O)c2c1`, the EC50 was 12 nM (MTNR1B; β-arrestin recruitment, agonist).
For `CN(Cc1cn(-c2ccccc2)nc1-c1cccs1)C(=O)c1cc(S(N)(=O)=O)ccc1O`, the IC50 was 100 nM (CA9; enzyme activity, inhibitor).
With `CC(C)=CCNc1ncnc2c1ncn2[C@@H]1O[C@H](CO)[C@@H](O)[C@H]1O` the EC50 was 900 nM (ADORA1 (Homo sapiens, UniProt P30542); G protein activation, agonist).
The EC50 of `CCCC[C@H](NC(C)=O)C(=O)N[C@H]1CC(=O)NCCCC[C@@H](C(=O)N[C@@H](C(=O)N2CCC[C@@H]2C(N)=O)C(C)C)NC(=O)[C@H](Cc2c[nH]c3ccccc23)NC(=O)[C@H](CCCN=C(N)N)NC(=O)[C@@H](Cc2ccc3ccccc3c2)NC(=O)[C@@H]2CCCN2C1=O` is reported as greater than 1000 nM (MC3R; cAMP, agonist).
With `NC1=NCC2c3ccccc3Cc3ccccc3N12` (stereo not shown) the EC50 was 705 nM (HTR1F; G protein activation, agonist, BRET).
`Cc1cc([C@@H](C)Nc2ccccc2C(=O)O)c2nc(N3CCC(F)(F)CC3)c(C#N)c(=O)n2c1` gave a remaining binding of 100% (RET (Homo sapiens, UniProt P07949); binding, competition with immobilised ligand; 10 µM).
`CC(=O)NCCc1c(Cc2ccccc2)[nH]c2ccccc12` has an EC50 of 19.1 nM (MTNR1B; GTPγS binding, agonist, radiometric; cell membranes).
`COc1ccccc1N1CCN(CCCCN2C(=O)c3ccccc3C2=O)CC1` has an EC50 of 413 nM (HTR1F; G protein activation, agonist, BRET).
The EC50 of `COC(=O)c1cccc(N(C)CC2CCS(=O)(=O)C2)n1` (stereo not shown) is reported as 30.6 nM (MTNR1A; cAMP, agonist, luciferase).
For `CNc1ncc2c(/C=C/C(=O)N3CCC(OC)CC3)nn(Cc3cccc(C(F)(F)F)c3)c2n1`, the remaining activity was 100% (JAK1 (Homo sapiens, UniProt P23458); enzyme activity, inhibitor, radiometric; 1 µM).
The EC50 of `COC(=O)c1sc(N(C)Cc2scnc2C)nc1Cl` is reported as 40.4 nM (MTNR1A; cAMP, agonist, luciferase).
For `CN(C)c1ncnc2c1ncn2[C@@H]1O[C@H](CO)[C@@H](O)[C@H]1O`, the EC50 was 13000 nM (ADORA3 (Homo sapiens, UniProt P0DMS8, I253F); G protein activation, agonist).
The EC50 of `O=C(CCCCCN1CCN(c2ccccc2-c2ccccc2)CC1)NC1CCCc2ccccc21` (stereo not shown) is reported as 315 nM (HTR1F; G protein activation, agonist, BRET).
With `O=c1cc(NCCCCCCO)[nH]c(=O)[nH]1` the EC50 was roughly 10000 nM (GPR84; cAMP, agonist).
For `CC1=NN(/C(=N/c2nnc(C)s2)Nc2ccc(C)c(C)c2)C(c2ccc(-c3ccc(C(F)(F)F)cc3)cc2)S1` (stereo not shown), the EC50 was 20100 nM (AVPR2; cAMP, positive allosteric modulator).
For `CC(=O)Nc1ccc(NC(=O)Nc2nc(CC(=O)Nc3ccc(S(N)(=O)=O)cc3)cs2)cc1`, the IC50 was 30.2 nM (CA9; enzyme activity, inhibitor).
For `C=CC(=O)N1CCC(COCC(=O)N2CCN(c3nc(-c4cnc(N)nc4C(F)F)nc(N4CCOC[C@@H]4C)n3)CC2)CC1`, the remaining binding was 92% (Receptor-type tyrosine-protein kinase FLT3, autoinhibited (FLT3, Homo sapiens, UniProt P36888); binding, competition with immobilised ligand; 1 µM).
`c1cc(NCc2ccccc2C2CC2)cc(-c2nnc[nH]2)c1` has an EC50 of 3160 nM (MTNR1A; cAMP, agonist, luciferase).
The EC50 of `CCN1CCC[C@H]1CNC(=O)c1c(O)c(Cl)cc(Cl)c1OC` is reported as 20.8 nM (HTR1F; G protein activation, agonist, BRET).
`CC1=NN(/C(=N\c2cccc(C)c2)Nc2nnc(C)s2)C(c2ccc(C)cc2)S1` (stereo not shown) gave an EC50 of 30800 nM (AVPR2; cAMP, positive allosteric modulator).
`CN1CCN(C2=Nc3ccccc3Cc3ccccc32)CC1` gave an EC50 of 1080 nM (HTR1F; G protein activation, agonist, BRET).
`CC1=NN(/C(=N\c2cccnc2)Nc2nnc(C)s2)C(c2ccc(C)cc2)S1` (stereo not shown) has an EC50 of greater than 50000 nM (AVPR2; cAMP, positive allosteric modulator).
For `COc1ccc2c(c1)N(Cc1ccc3c(c1)nnn3C)CCO2`, the EC50 was 8020 nM (MTNR1A; cAMP, agonist, luciferase).
`CCCCC/C=C\C/C=C\C/C=C\Cc1ccccc1CCCC(=O)OC(CO)CO` has an EC50 of 643 nM (CNR2 (Homo sapiens, UniProt P34972); cAMP, agonist).
`CC(=O)N[C@@H](C)c1cc(Cl)ccc1C1CCN(C(=O)[C@@H]2CN(C(C)(C)C)C[C@H]2c2ccc(F)cc2F)CC1` gave an EC50 of greater than 1000 nM (MC3R; cAMP, agonist).
With `CC1=NN(/C(=N\c2ccc(F)cc2)Nc2nnc(C)s2)C(c2ccc(C)cc2)S1` (stereo not shown) the EC50 was 40700 nM (AVPR2; cAMP, positive allosteric modulator).
`COc1ccc(CNc2cccnc2C)cc1` gave an EC50 of 1630 nM (MTNR1A; cAMP, agonist, luciferase).
`COc1ccc2[nH]cc(CCNC(C)=O)c2c1I` gave an EC50 of 10.5 nM (MTNR1B; GTPγS binding, agonist, radiometric; cell membranes).
For `O=C1CC2(CCCC2)CC(=O)N1CCCCN1CCN(c2ncccn2)CC1`, the EC50 was 3430 nM (HTR1F; G protein activation, agonist, BRET).
For `C[C@]12CCC(=O)C=C1CC[C@@H]1[C@@H]2[C@@H](O)C[C@@]2(C)[C@H]1CC[C@]2(O)C(=O)CO`, the EC50 was 19.4 nM and ~20 nM and 20 nM (NR3C2 (Homo sapiens, UniProt P08235); reporter gene, agonist, luciferase).
For `[Ca]`, the EC50 was 430 nM (KCNN4/CALM1 (Homo sapiens, UniProt O15554+P0DP23); ion current, agonist, patch clamp).
The EC50 of `COc1ccc(CNc2cccnc2)c(Br)c1` is reported as 47.9 nM (MTNR1A; cAMP, agonist, luciferase).
`O=c1cc(N2CCN(c3ccc(Cl)cc3)CC2)[nH]c(=O)[nH]1` has an EC50 of 151 nM (GPR84; cAMP, agonist).
`COC(=O)c1csc(CSc2nnc(C(C)(C)C)[nH]2)c1` has an EC50 of 23.1 nM (MTNR1A; cAMP, agonist, luciferase).
The EC50 of `O=C(NCCc1cccc2ccccc12)C1CCC1` is reported as 45.7 nM (MTNR1B; GTPγS binding, agonist, radiometric; cell membranes).
